Results gathered from unrelated publications.
A part holds a random share of what one study measured.

Block 1
Target: Histone acetyltransferase KAT6A, both winged helices, GST fusion (KAT6A, Homo sapiens, UniProt Q92794, residues 1-181)
Technique: protein binding microarray
Form: double-stranded DNA, one strand shown
Sample: in vitro
Concentration: not given
Notes: 8-mer, flanks averaged, mean of 2 arrays, mostly near background
Reference: not given
Direction: higher = stronger binding
Target sequence (chain): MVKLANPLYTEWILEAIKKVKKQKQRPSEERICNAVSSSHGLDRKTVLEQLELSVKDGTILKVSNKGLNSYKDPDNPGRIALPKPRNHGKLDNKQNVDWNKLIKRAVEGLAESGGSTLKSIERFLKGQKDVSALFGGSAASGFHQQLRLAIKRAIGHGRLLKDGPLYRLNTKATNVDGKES
`ACCCAAAT` gave an E-score of -0.152.
`AGAAACTA` gave an E-score of -0.148.
`CGCGCGCC` has an E-score of 0.394.
The E-score of `AGATACTC` is reported as -0.0357.
With `ATTGCATC` the E-score was -0.0808.
For `AATGCTGC`, the E-score was -0.0828.
`ATTCCGAC` has an E-score of 0.18.
The E-score of `ACCAAGCC` is reported as 0.0286.
For `AAAGCACC`, the E-score was -0.031.
The E-score of `CAAAGTGA` is reported as -0.0546.
With `GCCACACC` the E-score was 0.0057.
The E-score of `GTCGACGA` is reported as 0.0636.
With `CGACGAAC` the E-score was 0.178.
With `AAATTTGA` the E-score was -0.0572.
`AATACGAA` gave an E-score of -0.051.
The E-score of `ACGTTTTA` is reported as -0.0708.
`ACCCCCGG` gave an E-score of 0.212.
`CCGGAAAG` has an E-score of 0.109.
For `CATGTGGC`, the E-score was -0.0306.
With `GCCTCCCA` the E-score was -0.218.
For `CATCCACC`, the E-score was -0.112.
`AAAAAATC` gave an E-score of -0.0163.
`AGTTACCA` gave an E-score of -0.0118.
`AACTAGGT` has an E-score of -0.154.
`TCGGAAAA` gave an E-score of 0.169.

Block 2
Target: RNA binding protein fox-1 homolog 2, RRM domain, GST-SBP tag (RBFOX2, Homo sapiens, UniProt O43251-10, residues 100-194)
Technique: RNA Bind-n-Seq
Form: RNA
Sample: in vitro
Concentration: 365 nM
Notes: natural RNA segment, single round, ends assumed
Reference: no-protein control
Direction: higher = stronger binding
Residues (chain): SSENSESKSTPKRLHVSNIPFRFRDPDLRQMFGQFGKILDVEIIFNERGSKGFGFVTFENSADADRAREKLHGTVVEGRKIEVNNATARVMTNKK
`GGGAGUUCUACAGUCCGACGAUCGUCUUUGUUAUUAAAGGAACCUGCUGAUAAGUACAAGUGUGACCAUCUCAUUCAAAUGUUUGUUGUUAUGAUGCAAAUGGAUAUUGGUUUCAAUAGAAGCUGGAUCCUUAUGGAAUUCUCGGGUGCCAA` — result for “RBNS enrichment (R)”: 0.99.
`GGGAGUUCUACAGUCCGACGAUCCUUUGAACAGCUGUAUAUUAGUCCAUAACAUAACUACAAGAUUAGAUAGAGGCAACAUACUGUUAAGUCAUAUUUAAGUAAUUAGUUUUCUCUUAAUGUUGCCAAUAGAAUGGAAUUCUCGGGUGCCAA` — result for “RBNS enrichment (R)”: 0.374.
`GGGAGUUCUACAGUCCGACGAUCUUCCUUUCACACAGUAUUUCAGGCUGCUGUGGUGAAUUUGAAUGGCAGAUCCUACAGUCAAUAGAUAAUGAUGAGACUUACAACAUUUCACAUCUCUCUUGAGAAUCCUUUGGAAUUCUCGGGUGCCAA` — result for “RBNS enrichment (R)”: 0.364.
Under “RBNS enrichment (R)”, `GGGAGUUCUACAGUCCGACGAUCCUGCCCGAGAAUCAGCUUGAAUUCCCACUUCUGCUUGUUGGCCCCAGCUCUGGCUUUGCAUCCUUACUCUCAUGCCCAGUUGCUUAGAGAGAACGGGAGAACAGGUCUAAUGGAAUUCUCGGGUGCCAA` is recorded as 1.11.
`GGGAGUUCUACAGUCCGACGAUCAGAGAAGGGCUUUGUAAAUAGCAUUUAAUGUUAAGAACAUCUGCAUUCUCUUUGUAGCUGAGUGCGUGGCUUUGAAAGUUGUGGAGGAAUUAAUACAGACACCAGAUUUUUGGAAUUCUCGGGUGCCAA`: “RBNS enrichment (R)” 0.716.
For `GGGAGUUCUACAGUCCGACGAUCGCUCUAGGCUUGUCUCCAUGGGAACAGGAGGGGUGCCUUGUCAGCAAGCUCAUCCGCACAGAAGAGGGAAGAGGGAGAUGCGUGGGGAAACUGAGUGAGUCGGAUUCCUCUGGAAUUCUCGGGUGCCAA`, “RBNS enrichment (R)” read 0.925.
`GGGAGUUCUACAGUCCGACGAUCAGUAUGGGGGAAAAGGGUCGAGUUAGAACAAAGCUAAGGCAAUUCCUAUUGCUUCCUUGCGCAACUUCUCAAAACGAUGAAAGUCAGAAGGCUGUCAAACUCAAAUAUCUUGGAAUUCUCGGGUGCCAA`: “RBNS enrichment (R)” 0.297.
Under “RBNS enrichment (R)”, `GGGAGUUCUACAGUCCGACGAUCUUAGCUAUUGUUUGCCUGCACAUACAUGUUGUAAUAUGCACAGUGAUUACAACCUUUAAAGCAAGAGGAGGCGAGUUAAUUUGGAUGAGUGUGAUUUUGCUGAUUGAAUGUGGAAUUCUCGGGUGCCAA` is recorded as 9.62.
`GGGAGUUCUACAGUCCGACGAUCCUCCGUCUUCCCAGCGGUUCCUGUGCAGAUGCUGCUGAAGAGAGGUGCCGGGGAGGGGCAGAGAGGAAGUGGUCUGUCUGUUACCAUAAGUCUGAUUCUCUUUAACUGUGUGGAAUUCUCGGGUGCCAA` — result for “RBNS enrichment (R)”: 0.581.
`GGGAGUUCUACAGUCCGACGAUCUCCUGGGAGGAGUUAGAAGUAAUGGUUUAGUUCAGGCAGCUACACGUGCCUAUUUAUCCCUCGUUCCUGAACACUACUAGUACCGUAGGGCUGGACCACCAUCUGUACCGUGGAAUUCUCGGGUGCCAA` — result for “RBNS enrichment (R)”: 0.367.
`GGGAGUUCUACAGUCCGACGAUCGUACUUUGCCUGGCGCUGUGCGCAAGGUCAGAAAACUUACUGCUAGUACCUAGAAACACACAAGGCUGCCCAGCCAAAUCUUAAUGUAAAGUAGCUAGAGCCAUGGAAGUUGGAAUUCUCGGGUGCCAA`: “RBNS enrichment (R)” 0.348.
`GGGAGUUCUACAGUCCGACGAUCAGUAAUUAAUAGGAGGCCCAGCCUGGCAGACGCUUGCUGACGCUCCUUGGCUCUUGCCUGCUUGUCUUUUUCAUUCCAUCAUGGCUUCCCUUUUCAUAGCUGGAUCUUCCUGGAAUUCUCGGGUGCCAA` — result for “RBNS enrichment (R)”: 0.418.

Block 3
Molecule: PhoQ, residues 284 288 289 292 302 303 SASVAL
Technique: Sort-seq
Refers to: YFP reporter
Sample: E. coli
Notes: PhoQ-PhoP variant library
Added: 10 µM Mg2+
Reference: high Mg2+ state
Direction: higher = stronger signaling
For PhoP, residues 12 14 15 18 19 STHWV (Escherichia coli, UniProt P23836): fold induction read 0.759.
For PhoP, residues 12 14 15 18 19 QYCSL (Escherichia coli, UniProt P23836): fold induction read 3.41.
It gave 1.15 for fold induction (PhoP, residues 12 14 15 18 19 SHWTV (Escherichia coli, UniProt P23836)).

Block 4
Target: Interferon regulatory factor 7, full length, phosphomimetic (IRF7, Homo sapiens, UniProt Q92985, residues 1-503, S101K/S471D/S472D/S475D/S476D/S477D/S483D/S484D/S487D)
Chain of UniProt Q92985 (whole entry, unmodified, looked up): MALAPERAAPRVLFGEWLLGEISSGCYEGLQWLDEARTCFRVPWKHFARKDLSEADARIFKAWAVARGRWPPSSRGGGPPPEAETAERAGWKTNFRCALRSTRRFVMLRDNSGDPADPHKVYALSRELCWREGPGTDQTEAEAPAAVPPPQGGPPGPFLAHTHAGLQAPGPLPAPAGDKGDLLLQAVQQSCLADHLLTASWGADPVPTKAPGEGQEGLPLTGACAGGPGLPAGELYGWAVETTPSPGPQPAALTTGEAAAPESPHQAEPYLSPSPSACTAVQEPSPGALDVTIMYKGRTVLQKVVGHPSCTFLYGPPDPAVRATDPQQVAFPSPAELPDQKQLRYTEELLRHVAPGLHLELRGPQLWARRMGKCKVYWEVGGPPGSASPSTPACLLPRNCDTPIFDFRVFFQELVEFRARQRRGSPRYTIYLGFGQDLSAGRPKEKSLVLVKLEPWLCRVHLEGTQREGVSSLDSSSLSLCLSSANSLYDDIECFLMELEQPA
Technique: protein-binding microarray
Form: double-stranded DNA, one strand shown
Sample: in vitro
Concentration: 250 nM
Notes: 60-bp whole probe
Added: salmon DNA 0.4 mg/ml
Reference: random background probes
Direction: higher = stronger binding
Constant ends, left off below: GCCTAGCAC … GTCTTGATTCGCTTGACGCTGCTG
The log fluorescence of `TCATCTTCCCCTCTCTTACTGTGCTAG` is reported as 1.14 z-score.
For `GACGGCCTGGGGTATCGGGACGTGCTA`, the log fluorescence was -0.772 z-score.
With `GACGGTTTCCTTATCCTGAGGTGCTAG` the log fluorescence was 2.99 z-score.
The log fluorescence of `TTAGGTTTCGGTATCGCTTAGTGCTAG` is reported as 10.2 z-score.
`TTAGAGCTGAGTTTCGATTAGTGCTAG` gave a log fluorescence of 6.65 z-score.
For `TTAGGTTTCGACTATCGTTTAGTGCTA`, the log fluorescence was 5.79 z-score.
For `AAGGATTTCAGTTTCTCTTTGTGCTAG`, the log fluorescence was 5.88 z-score.
For `GAGGGTGTTCTTTTCTGTTGGTGCTAG`, the log fluorescence was -0.512 z-score.
`TACGGTATCGGACTGGGGACGTGCTAG` has a log fluorescence of -0.126 z-score.
With `TCACCTTGAACTTTGGCACTGTGCTAG` the log fluorescence was 0.0933 z-score.
The log fluorescence of `TTACATCTCAGACTGGATTAGTGCTAG` is reported as 0.393 z-score.
The log fluorescence of `CTAGGTATCGACACTGGGTTAGTGCTA` is reported as 0.324 z-score.
For `TCAGTGATCAGTCTGATACTGTGCTAG`, the log fluorescence was -0.773 z-score.
For `TTAGATATCAGTATCGATTCGTGCTAG`, the log fluorescence was 3.01 z-score.
The log fluorescence of `GACGAAATGAGACTGGAGACGTGCTAG` is reported as 0.0347 z-score.
The log fluorescence of `TCAGCTCTGTGCATAGGACTGTGCTAG` is reported as -0.651 z-score.
For `GGAGGTCTGGATGTGCCGCGGTGCTAG`, the log fluorescence was -1.18 z-score.
`TTAGATCCCAGTTTCGATTAGTGCTAG` has a log fluorescence of 8.69 z-score.

Block 5
Target: Cyclic AMP-dependent transcription factor ATF-1 (ATF1, Homo sapiens, UniProt P18846, residues 1-271, full length assumed)
Technique: protein-binding microarray
Form: double-stranded DNA, one strand shown
Sample: in vitro
Concentration: not given
Notes: k-mer, scored over probes, only values ≥0.25
Direction: higher = stronger binding
Construct (chain): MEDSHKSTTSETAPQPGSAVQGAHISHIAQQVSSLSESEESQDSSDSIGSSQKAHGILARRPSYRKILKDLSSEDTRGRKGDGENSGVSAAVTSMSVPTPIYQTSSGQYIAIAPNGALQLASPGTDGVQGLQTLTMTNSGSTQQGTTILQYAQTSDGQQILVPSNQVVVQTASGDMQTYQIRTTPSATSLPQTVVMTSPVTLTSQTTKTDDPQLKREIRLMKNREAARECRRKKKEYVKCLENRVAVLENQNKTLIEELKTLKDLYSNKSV
With `ACGTAAC` the E-score was 0.438.
With `CACGTCG` the E-score was 0.309.
For `AACCCCA`, the E-score was 0.259.
`ACATCAC` gave an E-score of 0.358.
For `ATCACAT`, the E-score was 0.303.
With `CAATGAC` the E-score was 0.263.
With `GCATGAC` the E-score was 0.366.
For `ATTCGTC`, the E-score was 0.293.
With `CGTCAAC` the E-score was 0.3.
`ACGAAAG` has an E-score of 0.267.
The E-score of `CACGTCA` is reported as 0.49.
`AGTGACG` has an E-score of 0.477.
`CGTCAGC` gave an E-score of 0.392.
For `ATTACGA`, the E-score was 0.285.
With `ACGTATA` the E-score was 0.393.
`CGTCATC` has an E-score of 0.489.
With `GACGTGC` the E-score was 0.287.
The E-score of `CGACGTA` is reported as 0.421.
For `GTCATGA`, the E-score was 0.356.
`ATGACGG` gave an E-score of 0.424.
The E-score of `TAGATGA` is reported as 0.278.
With `CGTGTCA` the E-score was 0.353.
The E-score of `ACTGACG` is reported as 0.39.
`AATGACG` gave an E-score of 0.464.
`CTACGTA` has an E-score of 0.443.
